Assay results gathered from unrelated publications.
Numbered parts are unrelated; each lists some results of a single study.

Sample 1 — method: competition protein-binding microarray; molecule type: double-stranded DNA, one strand shown; medium: in vitro; tested at: 2 µM; together with: Cbf1 competitor, 0.05 µM; reading: higher = stronger binding; endpoint: fluorescence intensity
Target: Phosphate system positive regulatory protein PHO4, full length, GST-tagged (PHO4, Saccharomyces cerevisiae, UniProt P07270, residues 1-312)
Notes: whole 60-bp probe, lowest competitor level
Residues (chain): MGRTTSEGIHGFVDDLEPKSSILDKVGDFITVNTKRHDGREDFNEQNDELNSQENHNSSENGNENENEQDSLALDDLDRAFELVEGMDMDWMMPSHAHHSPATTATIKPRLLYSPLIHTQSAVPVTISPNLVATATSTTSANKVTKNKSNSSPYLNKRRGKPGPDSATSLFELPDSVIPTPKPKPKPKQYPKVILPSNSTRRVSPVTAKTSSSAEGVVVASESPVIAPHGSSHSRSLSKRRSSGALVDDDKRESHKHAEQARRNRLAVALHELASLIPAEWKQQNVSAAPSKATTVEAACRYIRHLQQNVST
GTATATTAAAGGCTGCATGTGGCTACGTCTATTAAAGTCTTGATTCGCTTGACGCTGCTG: 11300 a.u.
AGCTACGGAAACCGTCACACTTTTTTTCTGCAAGAAGTCTTGATTCGCTTGACGCTGCTG: 3810 a.u.
CCCATAGATTGCGGGCACATGGCGCAGTTGGTAGCGGTCTTGATTCGCTTGACGCTGCTG: 12600 a.u.

Sample 2 — method: universal PBM; molecule type: double-stranded DNA, one strand shown; medium: in vitro; tested at: 600 nM; reading: higher = stronger binding; endpoint: E-score
Target: Sal-like protein 4, full length isoform A (SALL4, Homo sapiens, UniProt Q9UJQ4, residues 1-1053)
Sequence of UniProt Q9UJQ4 (whole entry, looked up): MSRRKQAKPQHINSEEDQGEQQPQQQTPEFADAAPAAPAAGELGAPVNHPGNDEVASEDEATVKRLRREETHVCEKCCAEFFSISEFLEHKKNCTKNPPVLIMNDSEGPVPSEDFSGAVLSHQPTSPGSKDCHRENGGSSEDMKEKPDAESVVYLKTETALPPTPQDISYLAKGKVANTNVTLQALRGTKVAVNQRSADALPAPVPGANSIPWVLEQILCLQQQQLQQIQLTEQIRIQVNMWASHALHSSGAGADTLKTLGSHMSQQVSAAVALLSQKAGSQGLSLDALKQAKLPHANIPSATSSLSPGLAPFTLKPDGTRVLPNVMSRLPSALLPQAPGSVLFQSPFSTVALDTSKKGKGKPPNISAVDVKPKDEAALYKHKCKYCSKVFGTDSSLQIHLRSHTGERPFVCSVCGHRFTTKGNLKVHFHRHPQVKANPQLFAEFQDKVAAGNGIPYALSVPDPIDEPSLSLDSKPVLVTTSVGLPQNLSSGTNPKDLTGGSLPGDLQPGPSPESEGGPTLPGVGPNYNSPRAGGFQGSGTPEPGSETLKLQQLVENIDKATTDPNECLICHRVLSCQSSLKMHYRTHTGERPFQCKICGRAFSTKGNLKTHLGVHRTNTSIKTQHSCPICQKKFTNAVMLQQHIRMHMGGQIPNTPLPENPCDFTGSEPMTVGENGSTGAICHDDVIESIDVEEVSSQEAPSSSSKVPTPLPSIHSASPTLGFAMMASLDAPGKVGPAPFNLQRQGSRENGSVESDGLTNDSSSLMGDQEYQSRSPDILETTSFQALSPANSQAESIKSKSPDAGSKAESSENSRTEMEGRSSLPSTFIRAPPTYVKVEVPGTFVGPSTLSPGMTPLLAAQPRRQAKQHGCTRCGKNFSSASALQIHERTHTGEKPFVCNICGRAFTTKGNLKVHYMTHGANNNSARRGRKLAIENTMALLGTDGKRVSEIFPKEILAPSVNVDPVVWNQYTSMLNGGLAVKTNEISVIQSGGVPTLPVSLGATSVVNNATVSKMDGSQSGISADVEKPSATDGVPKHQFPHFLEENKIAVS
Notes: 8-mer, flanks averaged, mean of replicates
ACCACCGG: -0.247
ATGGAAAA: 0.266
ATAGTACA: 0.0967

Sample 3 — method: protein binding microarray; molecule type: double-stranded DNA, one strand shown; medium: in vitro; tested at: not given; reference: not given; reading: higher = stronger binding; endpoint: E-score
Target: Histone acetyltransferase KAT6A, winged helix 1, GST fusion (KAT6A, Homo sapiens, UniProt Q92794, residues 1-85)
Notes: 8-mer, flanks averaged, mean of 2 arrays, mostly near background
Construct (chain): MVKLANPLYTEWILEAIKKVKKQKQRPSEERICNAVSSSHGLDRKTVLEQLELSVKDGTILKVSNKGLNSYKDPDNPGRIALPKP
TAGGCCGA: 0.0337
CAGCGTAC: 0.272
CTGTCGGC: 0.332

Single results of other studies
PhoQ, residues 284 288 289 292 302 303 TGYLSA — fold induction (PhoP, residues 12 14 15 18 19 GQAIL (Escherichia coli, UniProt P23836); Sort-seq, refers to: YFP reporter; E. coli; PhoQ-PhoP variant library, together with: 10 µM Mg2+; reference: high Mg2+ state, higher = stronger signaling): 4.72

Excerpt of the above (sample 3):
CAGCGTAC: 0.272
